Experimental data from different studies.
Parts stem from different laboratories: compare values within a part only.

Block 1
Target: Sal-like protein 4, full length isoform A (SALL4, Homo sapiens, UniProt Q9UJQ4, residues 1-1053)
Chain of UniProt Q9UJQ4 (whole entry, looked up): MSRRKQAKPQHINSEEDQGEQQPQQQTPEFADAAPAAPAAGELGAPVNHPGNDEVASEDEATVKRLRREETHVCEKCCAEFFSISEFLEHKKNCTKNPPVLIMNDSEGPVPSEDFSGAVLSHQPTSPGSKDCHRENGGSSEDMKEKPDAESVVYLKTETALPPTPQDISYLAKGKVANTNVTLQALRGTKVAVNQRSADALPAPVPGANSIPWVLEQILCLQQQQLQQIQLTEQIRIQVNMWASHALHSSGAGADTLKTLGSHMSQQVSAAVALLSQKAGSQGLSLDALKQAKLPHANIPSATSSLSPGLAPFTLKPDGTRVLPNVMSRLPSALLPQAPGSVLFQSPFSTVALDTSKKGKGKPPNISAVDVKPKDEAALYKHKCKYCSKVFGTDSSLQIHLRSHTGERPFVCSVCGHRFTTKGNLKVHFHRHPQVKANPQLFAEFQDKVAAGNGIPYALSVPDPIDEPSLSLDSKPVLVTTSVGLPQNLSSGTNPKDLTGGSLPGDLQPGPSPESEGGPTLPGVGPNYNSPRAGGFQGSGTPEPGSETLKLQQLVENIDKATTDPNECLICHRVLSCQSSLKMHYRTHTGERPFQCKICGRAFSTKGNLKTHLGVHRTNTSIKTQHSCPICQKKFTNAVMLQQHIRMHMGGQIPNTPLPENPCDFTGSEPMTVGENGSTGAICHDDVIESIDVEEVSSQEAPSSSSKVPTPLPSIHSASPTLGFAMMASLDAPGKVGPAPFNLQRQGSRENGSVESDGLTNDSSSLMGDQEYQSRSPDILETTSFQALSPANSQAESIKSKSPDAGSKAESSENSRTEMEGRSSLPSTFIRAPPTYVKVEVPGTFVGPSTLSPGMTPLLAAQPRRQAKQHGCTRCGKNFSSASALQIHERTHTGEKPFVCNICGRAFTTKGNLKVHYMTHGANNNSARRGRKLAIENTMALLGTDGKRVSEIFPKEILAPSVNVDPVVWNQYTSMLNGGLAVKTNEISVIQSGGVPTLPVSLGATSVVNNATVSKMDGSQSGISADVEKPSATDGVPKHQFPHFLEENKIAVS
Method: universal PBM
Form: double-stranded DNA, one strand shown
Matrix: in vitro
Concentration: 600 nM
Notes: 8-mer, flanks averaged, mean of replicates
Reading: higher = stronger binding
For `CATCAAAA`, the E-score was 0.213.
For `AAATTATG`, the E-score was 0.359.
`AACGTAAG` gave an E-score of 0.0524.
`CAGTAGCG` gave an E-score of -0.184.
For `ATTCTGAG`, the E-score was 0.229.
The E-score of `CGATAACC` is reported as 0.0227.
`AAATTCCC` has an E-score of 0.116.
With `ACAGCCAT` the E-score was 0.0112.

Block 2
Target: Replicase polyprotein 1ab, polymerase (rep, Severe acute respiratory syndrome coronavirus 2, UniProt P0DTD1)
Read-out: enzyme activity
Mode: inhibitor
Concentration: 20 µM
For Cn1cc(C(=O)OCC2CCN(CCNS(C)(=O)=O)CC2)c2ccccc21, the inhibition was 3.76%.
With Nc1ncnc2c1c(-c1ccc(Cl)cc1)nn2-c1cccc(-c2cnnn2Cc2cccc(-c3ccccc3)c2)c1 the inhibition was 26.7%.
The inhibition of CN(C)CCOc1cc(-c2cn[nH]c2)ccc1NC(=O)C1COc2ccccc2O1 (stereo not drawn) is reported as 0.34%.
With CC(C)(CCCCCC(O)CCCCCC(C)(C)C(=O)O)C(=O)O the inhibition was -3.68%.
For Clc1ccc(-c2nc3sccn3c2/C=N/OCc2ccc(Cl)c(Cl)c2)cc1, the inhibition was -1.48%.
NC(=O)NCCC[C@H](N)C(=O)O has an inhibition of -2.56%.
The inhibition of CC(C(=O)O)c1ccc(CC2CCCC2=O)cc1 (stereo not drawn) is reported as 0%.
CCCn1c(=O)c2[nH]c(-c3cnn(Cc4cccc(C(F)(F)F)c4)c3)nc2n(CC)c1=O gave an inhibition of 1.05%.
C[C@H](CCC(=O)O)[C@H]1CC[C@H]2[C@@H]3CC[C@@H]4C[C@H](O)CC[C@]4(C)[C@H]3CC[C@]12C gave an inhibition of 21.8%.
For COc1cc(C[C@H](C)[C@H](C)Cc2ccc3c(c2)OCO3)ccc1O, the inhibition was -2.96%.
CC(O)(P(=O)(O)O)P(=O)(O)O gave an inhibition of -10.7%.
NCCCC[C@H](NC(=O)[C@@H](Cc1cc(Br)c(O)c(Br)c1)NC(=O)N1CCC(N2Cc3ccccc3NC2=O)CC1)C(=O)N1CCN(c2ccncc2)CC1 has an inhibition of 1.31%.
For NC/C(=C/F)CCc1ccc(F)cc1, the inhibition was -0.38%.
O=C(O)Cn1nnc(-c2cc(N3CCC(Oc4cc(F)ccc4Br)CC3)no2)n1 has an inhibition of -2.09%.
The inhibition of NCCCNCCCCNCCCN is reported as -5.23%.
The inhibition of O=C1Nc2cc(Cl)c(Cl)cc2N2CCNCC12 (stereo not drawn) is reported as 0.22%.
With OC(CCN1CCCCC1)(c1ccccc1)C1CCCCC1 (stereo not drawn) the inhibition was 3.02%.
With COc1ccccc1N1CCN(CC(O)COc2cccc3ccccc23)CC1 (stereo not drawn) the inhibition was -0.46%.
NS(=O)(=O)c1cc2c(cc1Cl)N=C(CSCc1ccccc1)NS2(=O)=O has an inhibition of 1.72%.
O=C(O)/C=C/c1ccc(-c2ccc(O)c(C34CC5CC(CC(C5)C3)C4)c2)cc1 gave an inhibition of -0.86%.
With Nc1cc(C(F)(F)F)c(-c2nc(N3CCOCC3)nc(N3CCOCC3)n2)cn1 the inhibition was 0.17%.
For CCCCOC(=O)c1ccc(O)cc1, the inhibition was -0.58%.
CCC(CC)(NC(=O)C(C)C)C(=O)N[C@@H](CCCN=C(N)N)C(=O)NC1(C(=O)NC(c2ccc(F)cc2)c2ccc(F)cc2)CCCC1 has an inhibition of 2.46%.
Nc1ccn([C@@H]2O[C@H](CO)[C@@H](O)C2(F)F)c(=O)n1 has an inhibition of -3.48%.
The inhibition of COc1ccccc1C(=O)Nc1cccc(NC(=O)c2cccc(C)c2)c1 is reported as -2.42%.

Block 3
Target: Interferon regulatory factor 5, full length, phosphomimetic (IRF5, Homo sapiens, UniProt Q13568-2, residues 1-514, S451D/S453D/S456D/S462D)
Method: protein-binding microarray
Form: double-stranded DNA, one strand shown
Matrix: in vitro
Concentration: 940 nM top
Notes: 60-bp whole probe
Together with: salmon DNA 0.4 mg/ml
Reference: random background probes
Reading: higher = stronger binding
Constant ends, left off below: GCCTAGCAC … GTCTTGATTCGCTTGACGCTGCTG
Under “fitted relative affinity”, `AACCACATAGGAAGAACAACGTGCTAG` is recorded as 0.307 z-score.
`TTAGGTTTCGACACTTGGTTAGTGCTA`: “fitted relative affinity” 7.16 z-score.
For `CATTGCCTGTTTTTCCCCTGGTGCTAG`, “fitted relative affinity” read 1.02 z-score.
`TCACTCTGCTCTTTTCAAACTGTGCTA` — result for “fitted relative affinity”: 1.28 z-score.
`GACGATTTCGGGTTTCGACACGTGCTA`: “fitted relative affinity” 2.49 z-score.
`GACGATATCGGGCTTCGAGACGTGCTA`: “fitted relative affinity” -0.162 z-score.
For `TCACGAGTCCCTATCTCACTGTGCTAG`, “fitted relative affinity” read 0.136 z-score.
For `TCACCACCCGCTCTGGCACTGTGCTAG`, “fitted relative affinity” read -0.0855 z-score.

Block 4
Target: Histone acetyltransferase KAT6A, winged helix 1, GST fusion (KAT6A, Homo sapiens, UniProt Q92794, residues 1-85)
Method: protein binding microarray
Form: double-stranded DNA, one strand shown
Matrix: in vitro
Concentration: not given
Notes: 8-mer, flanks averaged, mean of 2 arrays, mostly near background
Reference: not given
Reading: higher = stronger binding
Construct (chain): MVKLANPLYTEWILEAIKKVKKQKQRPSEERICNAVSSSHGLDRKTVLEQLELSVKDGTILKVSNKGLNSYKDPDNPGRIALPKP
`GAGGTCAC` gave an E-score of -0.155.
`GCACCTAA` gave an E-score of -0.143.
`ATGTTTCA` has an E-score of 0.00182.
For `AGAGGCGG`, the E-score was 0.222.
For `ACGCAGCC`, the E-score was 0.128.
For `GATAAGAA`, the E-score was -0.035.
`TAGTCACA` has an E-score of -0.21.
`ACGCATTA` gave an E-score of 0.09.

Other studies, line by line
Concentration: 10 µM
For CC1(C)C(/C=C/C=C/C=C/C=C2\N(CCCCS(=O)(=O)[O-])c3ccc4ccccc4c3C2(C)C)=[N+](CCCCS(=O)(=O)[O-])c2ccc3ccccc3c21.[Na+], the inhibition was -14.3% (SARS-CoV-2; cytopathic effect; Vero E6).
C[n+]1c2cc(N)ccc2cc2ccc(N)cc21.Nc1ccc2cc3ccc(N)cc3nc2c1 has an inhibition of 50% (Replicase polyprotein 1ab, 3C-like proteinase (rep, Middle East respiratory syndrome-related coronavirus, UniProt K9N7C7); enzyme activity, inhibitor; MERS-CoV).
